Measurements gathered from unrelated publications.
Protocols differ between the studies behind these lines. “And” joins repeats or separate records; there may be more than shown. Numbers after ± are the reported error.
SCN5A: Sodium channel protein type 5 subunit alpha (SCN5A, Homo sapiens, UniProt Q14524)
Chain of UniProt Q14524 (whole entry, looked up): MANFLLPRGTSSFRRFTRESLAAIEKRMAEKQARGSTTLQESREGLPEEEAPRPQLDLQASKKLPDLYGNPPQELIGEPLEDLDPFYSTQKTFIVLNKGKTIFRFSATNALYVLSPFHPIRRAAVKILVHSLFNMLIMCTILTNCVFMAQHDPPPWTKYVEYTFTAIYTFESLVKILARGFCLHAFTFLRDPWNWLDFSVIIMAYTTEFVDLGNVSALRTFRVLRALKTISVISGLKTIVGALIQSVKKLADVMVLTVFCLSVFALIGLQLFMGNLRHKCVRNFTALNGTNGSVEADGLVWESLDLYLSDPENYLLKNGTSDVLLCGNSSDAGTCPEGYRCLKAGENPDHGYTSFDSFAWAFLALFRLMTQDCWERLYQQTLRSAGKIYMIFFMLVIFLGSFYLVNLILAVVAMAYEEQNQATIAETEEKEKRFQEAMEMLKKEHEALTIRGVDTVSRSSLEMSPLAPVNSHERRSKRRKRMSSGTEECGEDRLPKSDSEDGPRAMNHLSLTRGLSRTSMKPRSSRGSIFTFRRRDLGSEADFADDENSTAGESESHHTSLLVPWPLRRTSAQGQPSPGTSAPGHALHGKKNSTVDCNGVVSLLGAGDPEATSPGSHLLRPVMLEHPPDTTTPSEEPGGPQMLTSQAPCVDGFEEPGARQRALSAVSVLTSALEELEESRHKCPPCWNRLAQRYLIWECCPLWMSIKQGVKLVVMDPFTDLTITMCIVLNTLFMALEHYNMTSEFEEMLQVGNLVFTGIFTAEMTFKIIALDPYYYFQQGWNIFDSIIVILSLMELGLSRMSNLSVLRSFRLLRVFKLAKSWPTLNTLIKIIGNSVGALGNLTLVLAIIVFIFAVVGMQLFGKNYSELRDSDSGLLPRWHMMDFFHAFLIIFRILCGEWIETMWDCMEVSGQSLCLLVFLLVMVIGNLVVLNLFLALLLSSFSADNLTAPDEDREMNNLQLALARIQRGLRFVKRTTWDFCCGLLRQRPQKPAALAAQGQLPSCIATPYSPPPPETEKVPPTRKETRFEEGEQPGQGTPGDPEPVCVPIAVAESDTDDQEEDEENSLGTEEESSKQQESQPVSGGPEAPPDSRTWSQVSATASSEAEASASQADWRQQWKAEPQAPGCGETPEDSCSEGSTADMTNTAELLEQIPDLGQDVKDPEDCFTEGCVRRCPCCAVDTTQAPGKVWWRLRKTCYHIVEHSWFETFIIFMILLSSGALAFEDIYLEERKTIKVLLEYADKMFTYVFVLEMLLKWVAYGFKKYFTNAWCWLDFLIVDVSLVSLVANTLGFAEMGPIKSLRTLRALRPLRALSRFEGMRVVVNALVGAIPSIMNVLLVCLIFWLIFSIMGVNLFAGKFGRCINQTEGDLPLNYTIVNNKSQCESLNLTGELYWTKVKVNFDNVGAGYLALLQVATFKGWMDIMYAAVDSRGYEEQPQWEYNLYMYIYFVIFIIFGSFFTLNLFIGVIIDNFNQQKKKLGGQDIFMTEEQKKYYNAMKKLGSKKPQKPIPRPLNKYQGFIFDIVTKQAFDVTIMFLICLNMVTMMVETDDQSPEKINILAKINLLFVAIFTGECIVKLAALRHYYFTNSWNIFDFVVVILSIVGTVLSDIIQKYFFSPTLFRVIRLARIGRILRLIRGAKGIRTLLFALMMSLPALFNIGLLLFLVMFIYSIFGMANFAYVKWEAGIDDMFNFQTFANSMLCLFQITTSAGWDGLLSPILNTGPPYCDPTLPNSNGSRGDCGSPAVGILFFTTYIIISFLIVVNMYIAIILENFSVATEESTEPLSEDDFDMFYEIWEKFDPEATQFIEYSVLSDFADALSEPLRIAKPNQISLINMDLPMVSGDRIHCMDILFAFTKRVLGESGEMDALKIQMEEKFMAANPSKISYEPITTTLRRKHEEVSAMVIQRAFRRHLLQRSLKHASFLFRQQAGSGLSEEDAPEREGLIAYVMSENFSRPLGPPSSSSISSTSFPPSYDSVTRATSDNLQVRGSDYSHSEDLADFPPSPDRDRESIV
Tumor necrosis factor receptor superfamily member 9/Nectin-4: Tumor necrosis factor receptor superfamily member 9/Nectin-4 (Homo sapiens, UniProt Q07011+Q96NY8)
Chain of UniProt Q07011 (whole entry, looked up): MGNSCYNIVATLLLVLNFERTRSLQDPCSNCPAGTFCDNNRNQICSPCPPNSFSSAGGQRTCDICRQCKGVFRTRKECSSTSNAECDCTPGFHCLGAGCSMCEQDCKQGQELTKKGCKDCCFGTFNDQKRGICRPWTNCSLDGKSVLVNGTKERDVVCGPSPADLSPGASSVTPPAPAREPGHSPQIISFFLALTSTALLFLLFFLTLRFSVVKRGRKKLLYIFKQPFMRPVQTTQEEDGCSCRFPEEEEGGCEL
Chain of UniProt Q96NY8 (whole entry, looked up): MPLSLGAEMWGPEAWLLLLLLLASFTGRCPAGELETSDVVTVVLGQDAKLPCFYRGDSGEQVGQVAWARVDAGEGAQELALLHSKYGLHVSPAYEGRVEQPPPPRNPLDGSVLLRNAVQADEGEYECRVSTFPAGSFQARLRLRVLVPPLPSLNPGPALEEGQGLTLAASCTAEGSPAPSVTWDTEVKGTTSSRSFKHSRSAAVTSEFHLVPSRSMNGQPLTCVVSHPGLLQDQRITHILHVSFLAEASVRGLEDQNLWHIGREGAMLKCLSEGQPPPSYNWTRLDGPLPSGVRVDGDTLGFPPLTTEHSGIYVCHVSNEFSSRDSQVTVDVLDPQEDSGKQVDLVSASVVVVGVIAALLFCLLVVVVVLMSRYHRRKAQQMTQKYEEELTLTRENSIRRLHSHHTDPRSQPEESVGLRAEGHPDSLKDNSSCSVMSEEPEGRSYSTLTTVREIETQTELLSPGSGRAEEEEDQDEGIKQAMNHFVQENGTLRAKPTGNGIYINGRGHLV
Chain of UniProt Q16853 (whole entry, looked up): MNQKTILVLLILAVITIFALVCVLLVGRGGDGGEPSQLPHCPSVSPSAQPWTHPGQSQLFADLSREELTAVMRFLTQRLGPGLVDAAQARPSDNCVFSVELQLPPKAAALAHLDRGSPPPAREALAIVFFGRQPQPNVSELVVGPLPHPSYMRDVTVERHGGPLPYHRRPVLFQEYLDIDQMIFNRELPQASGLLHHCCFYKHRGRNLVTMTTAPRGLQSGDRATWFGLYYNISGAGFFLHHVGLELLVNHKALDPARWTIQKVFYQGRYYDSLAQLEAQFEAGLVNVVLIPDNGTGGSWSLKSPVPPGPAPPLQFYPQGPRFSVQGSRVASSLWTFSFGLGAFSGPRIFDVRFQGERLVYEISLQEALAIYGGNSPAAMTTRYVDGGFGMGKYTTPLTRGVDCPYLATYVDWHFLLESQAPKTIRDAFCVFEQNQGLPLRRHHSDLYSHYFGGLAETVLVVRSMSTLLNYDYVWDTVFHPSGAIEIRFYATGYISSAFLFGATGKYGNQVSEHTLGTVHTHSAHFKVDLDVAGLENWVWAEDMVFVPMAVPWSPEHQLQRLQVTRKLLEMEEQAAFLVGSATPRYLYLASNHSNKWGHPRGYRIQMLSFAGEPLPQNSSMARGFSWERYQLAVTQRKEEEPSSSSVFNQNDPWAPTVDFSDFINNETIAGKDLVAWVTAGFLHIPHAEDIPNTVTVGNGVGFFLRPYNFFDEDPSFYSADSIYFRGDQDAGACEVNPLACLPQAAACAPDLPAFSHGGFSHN
Chain of UniProt Q12809 (whole entry, looked up): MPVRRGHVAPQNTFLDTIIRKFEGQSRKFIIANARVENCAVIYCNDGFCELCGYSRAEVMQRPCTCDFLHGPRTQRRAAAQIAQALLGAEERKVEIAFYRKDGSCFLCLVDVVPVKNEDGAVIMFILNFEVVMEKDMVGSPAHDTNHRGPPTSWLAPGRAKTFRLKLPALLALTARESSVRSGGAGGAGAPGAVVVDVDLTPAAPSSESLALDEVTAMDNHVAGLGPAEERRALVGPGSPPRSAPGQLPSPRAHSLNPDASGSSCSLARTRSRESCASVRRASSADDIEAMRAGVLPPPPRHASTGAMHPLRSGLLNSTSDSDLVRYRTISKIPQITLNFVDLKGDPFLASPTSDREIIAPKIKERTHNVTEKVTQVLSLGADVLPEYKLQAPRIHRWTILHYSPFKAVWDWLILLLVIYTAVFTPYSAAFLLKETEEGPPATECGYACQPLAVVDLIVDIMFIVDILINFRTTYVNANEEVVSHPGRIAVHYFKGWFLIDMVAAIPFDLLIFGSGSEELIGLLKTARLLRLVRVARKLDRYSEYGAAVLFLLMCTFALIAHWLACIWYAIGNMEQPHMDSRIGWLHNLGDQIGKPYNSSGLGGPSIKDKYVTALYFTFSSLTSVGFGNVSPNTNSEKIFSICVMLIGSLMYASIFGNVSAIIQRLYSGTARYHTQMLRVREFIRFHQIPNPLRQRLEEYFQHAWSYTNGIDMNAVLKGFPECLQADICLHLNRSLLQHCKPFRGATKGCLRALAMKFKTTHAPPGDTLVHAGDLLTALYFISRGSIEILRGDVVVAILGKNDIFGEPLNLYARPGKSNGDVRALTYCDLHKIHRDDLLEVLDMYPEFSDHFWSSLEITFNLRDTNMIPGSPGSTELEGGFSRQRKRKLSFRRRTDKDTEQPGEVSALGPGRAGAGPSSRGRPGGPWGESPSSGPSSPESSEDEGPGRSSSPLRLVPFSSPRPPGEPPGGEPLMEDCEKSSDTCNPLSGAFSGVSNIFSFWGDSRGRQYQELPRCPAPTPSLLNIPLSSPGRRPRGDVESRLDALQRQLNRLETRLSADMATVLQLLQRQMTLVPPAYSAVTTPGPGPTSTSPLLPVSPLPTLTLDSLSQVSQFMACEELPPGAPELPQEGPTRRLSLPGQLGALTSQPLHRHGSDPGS
Chain of UniProt P0DMM9 (whole entry, looked up): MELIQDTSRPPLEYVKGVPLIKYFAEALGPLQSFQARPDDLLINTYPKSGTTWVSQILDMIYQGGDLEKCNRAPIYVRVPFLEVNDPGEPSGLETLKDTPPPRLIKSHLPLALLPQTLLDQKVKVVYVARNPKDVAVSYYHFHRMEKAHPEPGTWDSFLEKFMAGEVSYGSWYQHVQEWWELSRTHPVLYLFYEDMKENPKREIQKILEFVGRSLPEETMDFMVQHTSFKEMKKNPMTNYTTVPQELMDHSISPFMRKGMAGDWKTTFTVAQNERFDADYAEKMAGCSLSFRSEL

Under “recovery from inactivation”, `Cc1cccc(C)c1OCC(C)N` (stereo not shown) is recorded as 76.7% (SCN5A; concentration not given, 200 ms).
With `CC(=O)NCCc1c[nH]c2ccc(O)cc12` the specific activity was 0.27 ± 0.01 nmol/min/mg (SULT1A3 (Homo sapiens, UniProt P0DMM9); substrate, sulfation, purified enzyme; 10 µM, 10 min, pH 7.0, 37 °C).
`O=c1[nH]c(=O)c(Cc2cccc(C(F)(F)F)c2)c([C@H]2CC[C@H](c3ccccc3)CC2)[nH]1` has an IC50 of greater than 2 µM (ABCC2 (Homo sapiens, UniProt Q92887); transport, inhibitor; inside-out membrane vesicles; together with: estradiol 17-beta-D-glucuronide).
`CC[C@H]1[C@@H](O)[C@@H]2[C@H](CC[C@]3(C)[C@@H]([C@H](C)CCNC(=O)NS(=O)(=O)c4ccc(C(C)(C)C)cc4)CC[C@@H]23)[C@@]2(C)CC[C@@H](O)C[C@@H]12`: “AUC(0-t) geometric mean” 356 ng·h/mL (Cytochrome P450 3A4 (CYP3A4, Homo sapiens, UniProt P08684); substrate; human, plasma; 10 mg, alone, study day 1).
The AUC(0-t) of `C=CC(=O)N1C[C@H](Nc2ncnc3[nH]ccc23)CC[C@@H]1C` is reported as 260 ng·h/mL (CYP; substrate; human, plasma; oral, single dose, together with: rifampicin multiple doses once daily).
`CCCC[C@@H]1NC(=O)[C@H](Cc2ccc(O)cc2)NC(=O)[C@@H]2CCCN2C(=O)[C@H](CC(=O)O)NC(=O)[C@H](C)NC(=O)[C@H](Cc2ccccc2)NC(=O)[C@@H]2CSCCC(=O)N3CN(CN(C3)C(=O)CCSC[C@@H](C(=O)N[C@@H](C)C(N)=O)NC1=O)C(=O)CCSC[C@H](NC(C)=O)C(=O)N[C@@H](CC(C)(C)C)C(=O)N1CCC[C@H]1C(=O)N[C@@H](CCC(=O)O)C(=O)N[C@H](CCCCNC(=O)CCOCCOCCOCCOCCOCCOCCOCCOCCOCCOCCOCCOCCn1cc(CCC(=O)NCCC(=O)N(C)CC(=O)N(C)CC(=O)N(C)CC(=O)N(C)CC(=O)N(C)CC(=O)N(C)CC(=O)N(C)CC(=O)N(C)CC(=O)N(C)CC(=O)N(C)CC(=O)N[C@H]3CSCCC(=O)N4CN5CN(C4)C(=O)CCSC[C@H](NC(=O)[C@@H](CC(=O)O)NC(=O)[C@H](Cc4cccc6ccccc46)NC(=O)[C@@H]4CCCN4C3=O)C(=O)N[C@@H](CCSC)C(=O)N[C@@H](CCCCNC(=N)N)C(=O)N[C@@H](CC(=O)O)C(=O)N[C@@H](Cc3c[nH]c4ccccc34)C(=O)N[C@@H](CO)C(=O)N[C@@H]([C@@H](C)O)C(=O)N3CCC[C@H]3C(=O)N3C[C@H](O)C[C@H]3C(=O)N[C@@H](Cc3c[nH]c4ccccc34)C(=O)N[C@H](C(N)=O)CSCCC5=O)nn1)C(=O)N1CCC[C@H]1C(=O)N[C@@H](Cc1ccc(O)cc1)C(=O)N2` has an Emax of 44 fold (Tumor necrosis factor receptor superfamily member 9/Nectin-4; reporter gene, agonist, luciferase reporter; CD137 Jurkat reporter with HT-1376; 6 h, geometric mean; relative to: wells without compound).
The IC50 of `O=C(O)COc1cccc(-c2nc(Nc3ccc4[nH]ncc4c3)c3ccccc3n2)c1` is reported as 26.9 µM (UGT1A3 (Homo sapiens, UniProt P35503); enzyme activity, inhibitor; together with: quinidine).
For `Cc1oc2ccccc2c1Cc1cc(I)c(OCC(=O)O)c(I)c1`, “activation slope factor” read 9.2 ± 0.4 mV (KCNH2 (Homo sapiens, UniProt Q12809); ion current, whole-cell patch clamp; HEK293 expressing hERG1; 10 µM, external K+ 10 mM).
For `COc1cc(O)c(CC=C(C)C)c2c1C(=O)CC(c1ccc(O)cc1)O2` (stereo not shown), the inhibition was less than 10% (CYP2B6 (human); enzyme activity, inhibitor; human liver microsomes; 10 µM, pH 7.4, together with: bupropion).
The IC50 of `Cn1cc2c(C(=O)O)ccc(NS(=O)(=O)c3ccc(OCC4CCC4)c(Cl)c3)c2n1` is reported as greater than 100 µM (SCN5A; antagonist).
`CCCC[C@@H]1NC(=O)[C@H](Cc2ccc(O)cc2)NC(=O)[C@@H]2CCCN2C(=O)[C@H](CCC(=O)O)NC(=O)[C@H](C)NC(=O)[C@H](Cc2ccccc2)NC(=O)[C@@H]2CSCCC(=O)N3CN(CN(C3)C(=O)CCSC[C@H](NC(C)=O)C(=O)N[C@@H](CC(C)(C)C)C(=O)N3CCC[C@H]3C(=O)N[C@@H](CCC(=O)O)C(=O)N[C@H](CCCCNC(=O)CCc3cn(CCOCCOCCOCCN(CCOCCOCCOCCC(=O)N[C@H]4CSCCC(=O)N5CN6CN(C5)C(=O)CCSC[C@H](NC(=O)[C@@H](CC(=O)O)NC(=O)[C@H](Cc5cccc7ccccc57)NC(=O)[C@@H]5CCCN5C4=O)C(=O)N[C@@H](CCSC)C(=O)N[C@@H](CCCCNC(=N)N)C(=O)N[C@@H](CC(=O)O)C(=O)N[C@@H](Cc4c[nH]c5ccccc45)C(=O)N[C@@H](CO)C(=O)N[C@@H]([C@@H](C)O)C(=O)N4CCC[C@H]4C(=O)N4C[C@H](O)C[C@H]4C(=O)N[C@@H](Cc4c[nH]c5ccccc45)C(=O)N[C@H](C(N)=O)CSCCC6=O)CCOCCOCCOCCn4cc(CCC(=O)NCCCC[C@H]5NC(=O)[C@H](CCC(=O)O)NC(=O)[C@@H]6CCCN6C(=O)[C@H](CC(C)(C)C)NC(=O)[C@@H](NC(C)=O)CSCCC(=O)N6CN7CN(C6)C(=O)CCSC[C@H](NC(=O)[C@H](Cc6ccc(O)cc6)NC(=O)[C@@H]6CCCN6C5=O)C(=O)N[C@@H](Cc5ccccc5)C(=O)N[C@@H](C)C(=O)N[C@@H](CCC(=O)O)C(=O)N5CCC[C@H]5C(=O)N[C@@H](Cc5ccc(O)cc5)C(=O)N[C@@H](CCCC)C(=O)N[C@H](C(N)=O)CSCCC7=O)nn4)nn3)C(=O)N3CCC[C@H]3C(=O)N[C@@H](Cc3ccc(O)cc3)C(=O)N2)C(=O)CCSC[C@@H](C(N)=O)NC1=O` has an Emax of 11 fold (Tumor necrosis factor receptor superfamily member 9/Nectin-4; reporter gene, agonist, luciferase reporter; CD137 Jurkat reporter with HT-1376; 6 h, geometric mean; relative to: wells without compound).
`CCCN1CCCC[C@H]1C(=O)Nc1c(C)cccc1C` has an inhibition of 44.7 ± 5.6% (SCN5A; Nav1.5 current; HEK stably transfected Nav1.5; 100 µM).
The Emax of `CCCC[C@@H]1NC(=O)[C@H](Cc2ccc(O)cc2)NC(=O)[C@@H]2CCCN2C(=O)[C@H](CC(=O)O)NC(=O)[C@H](C)NC(=O)[C@H](Cc2ccccc2)NC(=O)[C@@H]2CSCCC(=O)N3CN(CN(C3)C(=O)CCSC[C@@H](C(=O)N[C@@H](CNC(=O)CCOCCOCCOCCOCCOCCOCCOCCOCCOCCOCCOCCOCCn3cc(CCC(=O)NCCC(=O)N(C)CC(=O)N(C)CC(=O)N(C)CC(=O)N(C)CC(=O)N(C)CC(=O)N(C)CC(=O)N(C)CC(=O)N(C)CC(=O)N(C)CC(=O)N(C)CC(=O)N[C@H]4CSCCC(=O)N5CN6CN(C5)C(=O)CCSC[C@H](NC(=O)[C@@H](CC(=O)O)NC(=O)[C@H](Cc5cccc7ccccc57)NC(=O)[C@@H]5CCCN5C4=O)C(=O)N[C@@H](CCSC)C(=O)N[C@@H](CCCCNC(=N)N)C(=O)N[C@@H](CC(=O)O)C(=O)N[C@@H](Cc4c[nH]c5ccccc45)C(=O)N[C@@H](CO)C(=O)N[C@@H]([C@@H](C)O)C(=O)N4CCC[C@H]4C(=O)N4C[C@H](O)C[C@H]4C(=O)N[C@@H](Cc4c[nH]c5ccccc45)C(=O)N[C@H](C(N)=O)CSCCC6=O)nn3)C(N)=O)NC1=O)C(=O)CCSC[C@H](NC(C)=O)C(=O)N[C@@H](CC(C)(C)C)C(=O)N1CCC[C@H]1C(=O)N[C@@H](CCC(=O)O)C(=O)N[C@H](C)C(=O)N1CCC[C@H]1C(=O)N[C@@H](Cc1ccc(O)cc1)C(=O)N2` is reported as 36 fold (Tumor necrosis factor receptor superfamily member 9/Nectin-4; reporter gene, agonist, luciferase reporter; CD137 Jurkat reporter with HT-1376; 6 h, geometric mean; relative to: wells without compound).
The Cmax of `Cn1c(=O)c2c(ncn2C)n(C)c1=O` is reported as 4280 ng/mL (Cytochrome P450 1A2 (CYP1A2, Homo sapiens, UniProt P05177); human, plasma; oral, 200 mg, day 1, alone, arithmetic mean).
For `CCCC[C@@H]1NC(=O)[C@H](Cc2ccc(O)cc2)NC(=O)[C@@H]2CCCN2C(=O)[C@H](CC(=O)O)NC(=O)[C@H](C)NC(=O)[C@H](Cc2ccccc2)NC(=O)[C@@H]2CSCCC(=O)N3CN(CN(C3)C(=O)CCSC[C@@H](C(=O)N[C@@H](CNC(=O)Cn3cc(CCC(=O)NCCC(=O)N(C)CC(=O)N(C)CC(=O)N(C)CC(=O)N(C)CC(=O)N(C)CC(=O)N(C)CC(=O)N(C)CC(=O)N(C)CC(=O)N(C)CC(=O)N(C)CC(=O)N[C@H]4CSCCC(=O)N5CN6CN(C5)C(=O)CCSC[C@H](NC(=O)[C@@H](CC(=O)O)NC(=O)[C@H](Cc5cccc7ccccc57)NC(=O)[C@@H]5CCCN5C4=O)C(=O)N[C@@H](CCSC)C(=O)N[C@@H](CCCCNC(=N)N)C(=O)N[C@@H](CC(=O)O)C(=O)N[C@@H](Cc4c[nH]c5ccccc45)C(=O)N[C@@H](CO)C(=O)N[C@@H]([C@@H](C)O)C(=O)N4CCC[C@H]4C(=O)N4C[C@H](O)C[C@H]4C(=O)N[C@@H](Cc4c[nH]c5ccccc45)C(=O)N[C@H](C(N)=O)CSCCC6=O)nn3)C(N)=O)NC1=O)C(=O)CCSC[C@H](NC(C)=O)C(=O)N[C@@H](CC(C)(C)C)C(=O)N1CCC[C@H]1C(=O)N[C@@H](CCC(=O)O)C(=O)N[C@H](C)C(=O)N1CCC[C@H]1C(=O)N[C@@H](Cc1ccc(O)cc1)C(=O)N2`, the Emax was 42 fold (Tumor necrosis factor receptor superfamily member 9/Nectin-4; reporter gene, agonist, luciferase reporter; CD137 Jurkat reporter with HT-1376; 6 h, geometric mean; relative to: wells without compound).
`NCc1cc2c(cc1F)C(=O)N(C1CCC(=O)NC1=O)C2` (stereo not shown) has a concentration of 38600 ng/mL and 30100 ng/mL (AOC3 (Homo sapiens, UniProt Q16853); substrate, LC-MS/MS; cirrhotic human liver lysate; 500.00 µM, 60 min, pH 7.4).
